Published values collected from several papers.
Protocols differ between the studies behind these lines. ± gives the spread as reported.
ABCB1: ATP-dependent translocase ABCB1 (ABCB1, Homo sapiens, UniProt P08183)
UniProt P08183, sequence (whole entry, looked up): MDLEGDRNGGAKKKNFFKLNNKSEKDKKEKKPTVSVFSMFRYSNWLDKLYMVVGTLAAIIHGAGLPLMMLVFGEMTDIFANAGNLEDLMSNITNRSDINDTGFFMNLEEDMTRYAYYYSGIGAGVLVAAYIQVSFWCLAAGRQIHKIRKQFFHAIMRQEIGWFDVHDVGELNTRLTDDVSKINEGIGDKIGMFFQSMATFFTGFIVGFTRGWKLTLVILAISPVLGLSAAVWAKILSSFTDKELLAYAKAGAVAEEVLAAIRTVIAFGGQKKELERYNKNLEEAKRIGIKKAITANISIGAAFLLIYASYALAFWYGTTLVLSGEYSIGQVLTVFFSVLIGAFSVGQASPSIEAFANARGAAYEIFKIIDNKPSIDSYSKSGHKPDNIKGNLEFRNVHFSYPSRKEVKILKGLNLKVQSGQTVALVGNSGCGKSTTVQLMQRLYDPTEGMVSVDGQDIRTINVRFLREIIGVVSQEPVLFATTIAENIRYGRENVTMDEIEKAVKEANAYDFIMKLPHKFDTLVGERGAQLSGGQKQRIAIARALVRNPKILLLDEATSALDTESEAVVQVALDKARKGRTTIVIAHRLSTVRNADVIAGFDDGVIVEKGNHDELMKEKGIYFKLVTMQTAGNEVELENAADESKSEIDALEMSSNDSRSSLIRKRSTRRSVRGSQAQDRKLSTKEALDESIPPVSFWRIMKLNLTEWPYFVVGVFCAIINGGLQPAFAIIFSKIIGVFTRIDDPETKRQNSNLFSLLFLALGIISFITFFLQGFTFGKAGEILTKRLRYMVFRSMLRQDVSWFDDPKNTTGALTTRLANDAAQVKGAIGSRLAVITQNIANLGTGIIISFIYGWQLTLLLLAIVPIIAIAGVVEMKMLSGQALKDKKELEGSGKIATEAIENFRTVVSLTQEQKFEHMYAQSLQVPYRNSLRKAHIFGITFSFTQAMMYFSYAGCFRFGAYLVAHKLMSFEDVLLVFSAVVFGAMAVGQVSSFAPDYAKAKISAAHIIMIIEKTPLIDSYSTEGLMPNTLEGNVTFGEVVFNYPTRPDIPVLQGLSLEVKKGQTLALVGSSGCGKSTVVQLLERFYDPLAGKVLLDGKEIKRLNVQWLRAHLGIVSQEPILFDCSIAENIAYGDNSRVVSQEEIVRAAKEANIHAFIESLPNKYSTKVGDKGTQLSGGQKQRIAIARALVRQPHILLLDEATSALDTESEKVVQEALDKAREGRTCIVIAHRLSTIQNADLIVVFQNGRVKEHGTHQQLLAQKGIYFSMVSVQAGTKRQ
Nuclear receptor subfamily 1 group I member 3: Nuclear receptor subfamily 1 group I member 3 (Homo sapiens, UniProt Q14994)
UniProt Q14994, sequence (whole entry, looked up): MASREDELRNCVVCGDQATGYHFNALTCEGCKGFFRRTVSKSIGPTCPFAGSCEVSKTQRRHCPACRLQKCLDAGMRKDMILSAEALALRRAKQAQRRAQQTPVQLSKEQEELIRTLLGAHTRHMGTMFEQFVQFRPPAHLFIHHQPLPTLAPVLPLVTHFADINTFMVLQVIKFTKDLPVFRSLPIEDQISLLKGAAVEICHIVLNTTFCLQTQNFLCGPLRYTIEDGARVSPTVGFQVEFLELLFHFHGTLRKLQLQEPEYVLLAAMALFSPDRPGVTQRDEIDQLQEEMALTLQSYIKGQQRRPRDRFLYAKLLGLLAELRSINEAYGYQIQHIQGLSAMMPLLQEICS
ALB: Albumin (ALB, Homo sapiens, UniProt P02768)
UniProt O60656, sequence (whole entry, looked up): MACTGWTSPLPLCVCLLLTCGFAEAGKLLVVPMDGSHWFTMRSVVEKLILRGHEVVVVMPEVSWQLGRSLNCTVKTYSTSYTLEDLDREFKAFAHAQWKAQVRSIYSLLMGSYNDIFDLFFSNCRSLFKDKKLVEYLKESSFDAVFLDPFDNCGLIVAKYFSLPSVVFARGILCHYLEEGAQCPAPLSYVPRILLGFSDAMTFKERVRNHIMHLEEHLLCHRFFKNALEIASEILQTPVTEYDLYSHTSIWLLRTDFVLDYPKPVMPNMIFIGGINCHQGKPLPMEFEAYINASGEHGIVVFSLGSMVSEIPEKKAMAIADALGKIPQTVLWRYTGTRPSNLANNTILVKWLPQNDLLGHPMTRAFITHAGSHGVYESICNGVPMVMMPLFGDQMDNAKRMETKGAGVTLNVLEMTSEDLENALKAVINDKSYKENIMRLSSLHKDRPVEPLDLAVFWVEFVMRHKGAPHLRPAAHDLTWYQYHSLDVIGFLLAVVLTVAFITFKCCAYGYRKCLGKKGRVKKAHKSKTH
UniProt O43704, sequence (whole entry, looked up): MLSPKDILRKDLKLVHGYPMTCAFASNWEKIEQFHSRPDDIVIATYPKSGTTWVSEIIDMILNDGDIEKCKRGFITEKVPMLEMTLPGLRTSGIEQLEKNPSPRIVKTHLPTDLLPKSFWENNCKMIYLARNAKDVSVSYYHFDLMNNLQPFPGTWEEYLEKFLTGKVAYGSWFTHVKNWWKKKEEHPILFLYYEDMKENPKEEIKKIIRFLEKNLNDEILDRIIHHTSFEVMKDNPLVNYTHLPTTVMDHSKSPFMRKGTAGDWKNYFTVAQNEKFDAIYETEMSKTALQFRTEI
UniProt P10635, sequence (whole entry, looked up): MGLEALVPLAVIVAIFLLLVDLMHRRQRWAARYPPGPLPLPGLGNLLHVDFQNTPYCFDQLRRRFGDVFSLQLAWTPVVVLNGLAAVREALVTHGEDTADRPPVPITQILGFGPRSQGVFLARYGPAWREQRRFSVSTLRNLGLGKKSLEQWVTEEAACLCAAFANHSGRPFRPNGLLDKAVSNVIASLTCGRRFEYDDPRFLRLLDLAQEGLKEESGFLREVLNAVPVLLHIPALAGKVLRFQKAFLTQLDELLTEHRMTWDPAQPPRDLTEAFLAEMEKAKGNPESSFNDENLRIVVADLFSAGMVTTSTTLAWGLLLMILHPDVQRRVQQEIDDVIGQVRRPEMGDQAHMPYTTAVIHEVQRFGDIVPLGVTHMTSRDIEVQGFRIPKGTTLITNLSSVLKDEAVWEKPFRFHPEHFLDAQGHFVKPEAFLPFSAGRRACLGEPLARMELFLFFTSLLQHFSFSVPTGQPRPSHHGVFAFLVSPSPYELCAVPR
UniProt Q86VL8, sequence (whole entry, looked up): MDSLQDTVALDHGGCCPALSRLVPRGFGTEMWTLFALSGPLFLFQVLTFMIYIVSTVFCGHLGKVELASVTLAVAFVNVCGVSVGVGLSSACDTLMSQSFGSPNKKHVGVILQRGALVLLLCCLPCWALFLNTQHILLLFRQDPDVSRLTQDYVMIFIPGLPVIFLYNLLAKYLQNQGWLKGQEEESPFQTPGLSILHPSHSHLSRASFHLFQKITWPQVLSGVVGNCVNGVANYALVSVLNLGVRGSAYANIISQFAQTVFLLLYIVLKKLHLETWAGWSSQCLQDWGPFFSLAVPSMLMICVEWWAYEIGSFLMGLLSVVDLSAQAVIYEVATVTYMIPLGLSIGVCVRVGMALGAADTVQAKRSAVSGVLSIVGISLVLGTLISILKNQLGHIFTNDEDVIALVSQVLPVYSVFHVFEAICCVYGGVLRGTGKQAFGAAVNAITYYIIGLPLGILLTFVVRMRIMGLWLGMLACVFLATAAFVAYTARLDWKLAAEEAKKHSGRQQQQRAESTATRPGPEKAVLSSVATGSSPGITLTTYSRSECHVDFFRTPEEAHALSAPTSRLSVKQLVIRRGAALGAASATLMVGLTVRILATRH
UniProt P11509, sequence (whole entry, looked up): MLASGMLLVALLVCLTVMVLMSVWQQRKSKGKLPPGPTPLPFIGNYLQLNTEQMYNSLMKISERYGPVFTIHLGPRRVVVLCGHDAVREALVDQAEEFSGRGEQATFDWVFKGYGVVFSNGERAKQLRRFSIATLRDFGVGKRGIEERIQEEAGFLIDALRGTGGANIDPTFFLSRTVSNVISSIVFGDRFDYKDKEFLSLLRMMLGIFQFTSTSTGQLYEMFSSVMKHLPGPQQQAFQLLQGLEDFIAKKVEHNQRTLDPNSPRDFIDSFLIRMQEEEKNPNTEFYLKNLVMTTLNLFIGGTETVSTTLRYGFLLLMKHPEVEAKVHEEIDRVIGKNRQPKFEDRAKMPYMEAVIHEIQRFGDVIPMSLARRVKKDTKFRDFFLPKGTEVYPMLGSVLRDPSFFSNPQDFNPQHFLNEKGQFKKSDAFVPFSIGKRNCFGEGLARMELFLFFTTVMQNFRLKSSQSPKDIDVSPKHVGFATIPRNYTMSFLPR

| SMILES | target | assay | system | setting | how to read | measurement | value |
| --- | --- | --- | --- | --- | --- | --- | --- |
| COc1cccc(-c2cc(N3CCN(C(=O)c4ccoc4)CC3)n3nc(-c4cccc(Cl)c4)cc3n2)c1 | ABCB1 | JC-1 efflux, inhibitor | Jurkat-DNR | – | – | IC50 | 2.17 ± 1.02 µM |
| CC[C@H](C)[C@H](NC(=O)[C@H](CCC(=O)O)NC(=O)[C@H](CO)NC(=O)[C@@H](NC(=O)[C@@H](N)CO)C(C)C)C(=O)N[C@@H](CCC(N)=O)C(=O)N[C@@H](CC(C)C)C(=O)N[C@@H](CCSC)C(=O)N[C@@H](Cc1cnc[nH]1)C(=O)N[C@@H](CC(N)=O)C(=O)N[C@@H](CC(C)C)C(=O)NCC(=O)N[C@@H](CCCCN)C(=O)N[C@@H](Cc1cnc[nH]1)C(=O)N[C@@H](CC(C)C)C(=O)N[C@@H](CC(N)=O)C(=O)N[C@@H](CO)C(=O)N[C@@H](CCSC)C(=O)N[C@@H](CCC(=O)O)C(=O)N[C@@H](CCCN=C(N)N)C(=O)N[C@H](C(=O)N[C@@H](CCC(=O)O)C(=O)N[C@@H](Cc1c[nH]c2ccccc12)C(=O)N[C@@H](CC(C)C)C(=O)N[C@@H](CCCN=C(N)N)C(=O)N[C@@H](CCCCN)C(=O)N[C@@H](CCCCN)C(=O)N[C@@H](CC(C)C)C(=O)N[C@@H](CCC(N)=O)C(=O)N[C@@H](CC(=O)O)C(=O)N[C@H](C(=O)N[C@@H](Cc1cnc[nH]1)C(=O)N[C@@H](CC(N)=O)C(=O)N[C@@H](Cc1ccccc1)C(=O)O)C(C)C)C(C)C | chymotrypsin (bovine) | – | – | 30 min, pH 6.5, 37 °C, with: soybean trypsin inhibitor 25.1 mg | – | remaining intact compound | 39% |
| C=CC(=O)N1C[C@H](Nc2ncnc3[nH]ccc23)CC[C@@H]1C | CYP3A | – | human, plasma | oral, 30 mg, 5 days, with: itraconazole 200 mg once daily | relative to: with over without itraconazole | Cmax ratio | 102% |
| O=C(c1ccc(Cl)cc1)N1CCN(c2cc(-c3ccccc3)nc3cc(-c4cccc(Cl)c4)nn23)CC1 | ABCB1 | JC-1 efflux, inhibitor | Jurkat-DNR | – | – | IC50 | 2.36 ± 0.7 µM |
| COc1ccc2[nH]c([S+]([O-])Cc3ncc(C)c(OC)c3C)nc2c1 (stereo not drawn) | mitochondrial cytochrome P450 rat | inhibitor | – | 100 µM, 60 min, pH 7.4 | – | inhibition | 68% |
| O=C(c1ccoc1)N1CCN(c2cc(-c3ccc(F)cc3)nc3cc(-c4cccc(Cl)c4)nn23)CC1 | ABCB1 | JC-1 efflux, inhibitor | Jurkat-DNR | – | – | IC50 | 5.65 ± 0.11 µM |
| Oc1cc(O)c2c(c1)O[C@H](c1cc(O)c(O)c(O)c1)[C@H](O)C2 | UGT1A9 (Homo sapiens, UniProt O60656) | substrate | – | pH 7.4, 37 °C | – | Km | 135 µM |
| O=C1C[C@@H](c2ccc(O)cc2)Oc2cc(O)cc(O)c21 | SULT1B1 (Homo sapiens, UniProt O43704) | substrate | – | 10 µM | – | specific activity | 0.56 ± 0.03 nmol/min/mg |
| O=S(=O)(c1ccccc1)N1CCN(c2cc(-c3ccccc3)nc3cc(-c4cccc(Cl)c4)nn23)CC1 | ABCB1 | JC-1 efflux, inhibitor | Jurkat-DNR | – | – | IC50 | > 50 µM |
| Clc1ccc(CCNCc2c(-c3ccc4ccccc4c3)nc3sccn23)cc1Cl | Nuclear receptor subfamily 1 group I member 3 | reporter gene, agonist | HepG2-CYP2B6 cells | unit not given | relative to: CITCO | Emax | 3.6 |
| O=C(c1ccoc1)N1CCN(c2cc(-c3ccco3)nc3cc(-c4cccc(Cl)c4)nn23)CC1 | ABCB1 | JC-1 efflux, inhibitor | Jurkat-DNR | – | – | IC50 | 6.42 µM |
| CCOC(=O)c1csc([C@@H](NC(=O)c2csc([C@@H](N)C(C)C)n2)C(C)C)n1 | ABCB1 | Bodipy-FL-prazosin efflux, flow cytometry | HeLa transduced with BacMam ABCB1 | 20 µM, 45 min, 5% FBS | relative to: 1 µM tariquidar | inhibition | 13% |
| C1CCC(C(CC2CCCCN2)C2CCCCC2)CC1 (stereo not drawn) | Cytochrome P450 2D6 (CYP2D6, Homo sapiens, UniProt P10635) | – | HepG2 overexpressing CYP2D6 | concentration not given | relative to: empty vector control | mitochondrial membrane potential | decreased |
| CC(C)[C@H](N)c1nc(C(=O)N[C@H](c2nc(C(=O)O)cs2)C(C)C)cs1 | ABCB1 | Bodipy-FL-prazosin efflux, flow cytometry | HeLa transduced with BacMam ABCB1 | 20 µM, 45 min, 5% FBS | relative to: 1 µM tariquidar | inhibition | 9% |
| CC[C@H](C)[C@H](NC(=O)[C@H](Cc1ccc(O)cc1)NC(=O)[C@@H](NC(=O)[C@@H](N)CCCN=C(N)N)C(C)C)C(=O)N[C@@H](Cc1c[nH]cn1)C(=O)N1CCC[C@H]1C(=O)N[C@@H](Cc1ccccc1)C(=O)O | trypsin | substrate, LC-MS | – | 20 µM, 4 h, pH 7.4, with: Aβ1-28 10 µM, MINP(A) | – | peptide hydrolysed | 7.4 ± 1.8% |
| CCOC(=O)c1csc([C@@H](NC(=O)c2csc([C@@H](NC(=O)c3csc([C@@H](N)C(C)C)n3)C(C)C)n2)C(C)C)n1 | ABCB1 | Bodipy-FL-prazosin efflux, flow cytometry | HeLa transduced with BacMam ABCB1 | 10 µM, 45 min, 5% FBS | relative to: 1 µM tariquidar | inhibition | 67% |
| O=C(c1ccoc1)N1CCN(c2cc(-c3ccccc3F)nc3cc(-c4cccc(Cl)c4)nn23)CC1 | ABCB1 | JC-1 efflux, inhibitor | Jurkat-DNR | – | – | IC50 | 4.69 ± 1.5 µM |
| CO[C@H]1/C=C/O[C@@]2(C)Oc3c(C)c(O)c4c(O)c(c(/C=N/N5CCN(C)CC5)c(O)c4c3C2=O)NC(=O)/C(C)=C\C=C\[C@H](C)[C@H](O)[C@@H](C)[C@@H](O)[C@@H](C)[C@H](OC(C)=O)[C@@H]1C | OATP1B1 and OATP1B3 | rosuvastatin uptake, inhibitor | sandwich-cultured human hepatocytes | 50 µM, with: 0.5 µM [3H]rosuvastatin | – | inhibition | ~55% |
| CC(C)(C(=O)NCC(F)(F)C(F)(F)F)C(=O)N[C@@H]1C(=O)Nc2ccccc2-c2ccccc21 | ALB | equilibrium dialysis | human serum albumin 5 mg/mL in PBS | 500 ng/mL, 24 h, pH 7.4, mean | – | unbound fraction | 0.333 |
| CCOC(=O)c1csc([C@@H](NC(=O)c2csc([C@@H](NC(=O)c3csc([C@@H](NC(=O)OC(C)(C)C)C(C)C)n3)C(C)C)n2)C(C)C)n1 | ABCB1 | calcein-AM efflux, flow cytometry | HeLa transduced with BacMam ABCB1 | 10 µM, 10 min, 5% FBS, with: calcein-AM 0.5 µM | relative to: 1 µM tariquidar | inhibition | 98% |
| Cc1coc2c1CC[C@@H](C)C2 | Cytochrome P450 2A6 (CYP2A6, Homo sapiens, UniProt P11509) | enzyme activity, inhibitor | – | 20 µM, 10 min, 30 °C, preincubation with NADPH, with: coumarin 7-hydroxylation substrate | relative to: no NADPH control | remaining activity | 5 ± 1% |
| CC[C@H](C)[C@H](NC(=O)[C@H](Cc1ccccc1)NC(=O)[C@H](CCC(=O)O)NC(=O)[C@H](CCCCNC(=O)COCCOCCNC(=O)COCCOCCNC(=O)CC[C@H](NC(=O)CCCCCCCCCCCCCCCCC(=O)O)C(=O)O)NC(=O)[C@H](C)NC(=O)[C@H](C)NC(=O)[C@H](CCC(N)=O)NC(=O)CNC(=O)[C@H](CCC(=O)O)NC(=O)[C@H](CC(C)C)NC(=O)[C@H](Cc1ccc(O)cc1)NC(=O)[C@H](CO)NC(=O)[C@H](CO)NC(=O)[C@@H](NC(=O)[C@H](CC(=O)O)NC(=O)[C@H](CO)NC(=O)[C@@H](NC(=O)[C@H](Cc1ccccc1)NC(=O)[C@@H](NC(=O)CNC(=O)[C@H](CCC(=O)O)NC(=O)C(C)(C)NC(=O)[C@@H](N)Cc1cnc[nH]1)[C@@H](C)O)[C@@H](C)O)C(C)C)C(=O)N[C@@H](C)C(=O)N[C@@H](Cc1c[nH]c2ccccc12)C(=O)N[C@@H](CC(C)C)C(=O)N[C@H](C(=O)N[C@@H](CCCNC(=N)N)C(=O)NCC(=O)N[C@@H](CCCNC(=N)N)C(=O)NCC(=O)O)C(C)C | ALB | binding | – | 14.8 µM, 2 h, with: 147 µM insulin icodec | – | unbound fraction | 78% |
| Clc1ccc(-c2nc3sccn3c2CNCCc2ccc(Cl)c(Cl)c2)cc1 | Nuclear receptor subfamily 1 group I member 3 | reporter gene, agonist | HepG2-CYP2B6 cells | unit not given | relative to: CITCO | Emax | 2.8 |
| O=C(c1ccoc1)N1CCN(c2cc(-c3ccco3)nc3cc(-c4ccccc4)nn23)CC1 | ABCB1 | JC-1 efflux, inhibitor | Jurkat-DNR | – | – | IC50 | 4.65 ± 0.74 µM |
| CCCN(CCC)S(=O)(=O)c1ccc(C(=O)O)cc1 | SLC47A2 (Homo sapiens, UniProt Q86VL8) | transport, inhibitor | HEK cells transfected with SLC47A2 | 0.5 min, with: baricitinib 0.25 µM | – | IC50 | > 200 µM |
| Nc1ccc(S(=O)(=O)Nc2ccnn2-c2ccccc2)cc1 | mitochondrial cytochrome P450 rat | inhibitor | – | 10 µM, 60 min, pH 7.4 | – | inhibition | 17% |
| Cc1nc2cc(-c3cccc(Cl)c3)nn2c(N2CCN(C(=O)c3ccco3)CC2)c1C | ABCB1 | JC-1 efflux, inhibitor | Jurkat-DNR | – | – | IC50 | 8.4 ± 0.7 µM |

Some of these lines once more:
| SMILES | target | assay | system | setting | how to read | measurement | value |
| --- | --- | --- | --- | --- | --- | --- | --- |
| Clc1ccc(-c2nc3sccn3c2CNCCc2ccc(Cl)c(Cl)c2)cc1 | Nuclear receptor subfamily 1 group I member 3 | reporter gene, agonist | HepG2-CYP2B6 cells | unit not given | relative to: CITCO | Emax | 2.8 |
| CC[C@H](C)[C@H](NC(=O)[C@H](Cc1ccc(O)cc1)NC(=O)[C@@H](NC(=O)[C@@H](N)CCCN=C(N)N)C(C)C)C(=O)N[C@@H](Cc1c[nH]cn1)C(=O)N1CCC[C@H]1C(=O)N[C@@H](Cc1ccccc1)C(=O)O | trypsin | substrate, LC-MS | – | 20 µM, 4 h, pH 7.4, with: Aβ1-28 10 µM, MINP(A) | – | peptide hydrolysed | 7.4 ± 1.8% |
| Cc1coc2c1CC[C@@H](C)C2 | Cytochrome P450 2A6 (CYP2A6, Homo sapiens, UniProt P11509) | enzyme activity, inhibitor | – | 20 µM, 10 min, 30 °C, preincubation with NADPH, with: coumarin 7-hydroxylation substrate | relative to: no NADPH control | remaining activity | 5 ± 1% |
| O=C(c1ccoc1)N1CCN(c2cc(-c3ccco3)nc3cc(-c4cccc(Cl)c4)nn23)CC1 | ABCB1 | JC-1 efflux, inhibitor | Jurkat-DNR | – | – | IC50 | 6.42 µM |
